Experimental data gathered from unrelated publications.
Each numbered part is a random draw from the data of one study; scales do not carry over between parts. Changes are numbered by the printed parent chain.

Study 1 — technique: RNA Bind-n-Seq; molecule type: RNA; sample: in vitro; concentration: 365 nM; baseline: no-protein control; direction: higher = stronger binding
Target: RNA binding protein fox-1 homolog 2, RRM domain, GST-SBP tag (RBFOX2, Homo sapiens, UniProt O43251-10, residues 100-194)
Setting: natural RNA segment, single round, ends assumed
All sequences stand within: GGGAGUUCUACAGUCCGACGAUC … UGGAAUUCUCGGGUGCCAA
Target sequence (chain): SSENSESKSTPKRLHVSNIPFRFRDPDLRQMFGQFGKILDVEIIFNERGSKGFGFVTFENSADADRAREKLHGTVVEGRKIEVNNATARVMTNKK
Sequence	RBNS enrichment (R)
AUUAAGAAGGUCUAGACAUGGACAUUUUCUGUCCUACAAUGCUGACAUACUGUUAUUUCUUCUGGGAUUUAUUCUUGGCUGUAAACCCAGAACUAAAUUACAUAGAUGAA	0.475
CAAGGUGGCAAAAAUUAGCUAUACUGAUGUAAUUGUCAUUUACCUGGGUAUGAAUUCCCUGACACACAUUCAUGUCAACAUAUGUAGCAAAUUUUGUGAAAACAUAACAA	0.616
UAUGUCUGGAGGGUACCAACUCCUCCAGCCUAGACCCCUGGCUUUGUCCAACACCAGCCCUGACCCAAGUCCAAAUGUUUACAGGGAGCCUCCUGCCUACCCCACUCUCU	0.307
AGGCCUGAGAGAGGAGCUGCUCAGUUUACAGAACAGGAGCGGGUUACCAGACUCAUUCUUUUCAUCCAGCAGGCUAGUGGGAAGGAAUGGGUGUUCCUGUUUAACUUUCU	0.338
GUGUUCUGGAUAUGAAUGUAUGUACACUGAUGCUGCCCCCCUCUGUACAGCGGCUUGGCCUCUCACGAUCCAUUGUAUGGCUUUAUAAAUGAUAAAGUUACACAAACCCA	0.703
GUGCGUCUCGGGUGACCCUUGCUGUCUUUUCUCUACACCCAUGGAUUCUCUGAAAAUACUUUGCAGUUCCUUGUGUCUUAAAAAAACACAAAAACAAAAACCAGAACUAG	0.42
CUAAUUAUAUUGCAAAUUAUUAGGGCUUCAUUGUAAUCUACUUUAUUAAUGAAAAAUGACAAAGCAGUGUACUGAUAAGCCAAGGUGCUUUUGAUCUGUAAUUUCUUCUC	0.367
UUUUUUCCUUUCUUUGUGUGUAGUGCAGCAACAGUUUGGUCUGCAUUUGUUAGAAGUUUAACUCCUAACAACCCAAAGACCUAUUUAACAAUUGGUGCAUAAAUGAAAGU	0.422
UUUGACACUGGUGGUGAGUUCUUUUGAGGCGUGAGAUUUCUAUGUGAAACUGAUAGGUCUUGAUCUGCUUUCUUAGAUCACUGAUUCAGAGCUCAAAGCCCAGGUUCAGG	0.487
AAGUGUACCUGUGUACAUAACUCUGUAAAAACACUGAAAAAUUAUACUAACUUAUUUAUGUUAAAAGAUUUUUUUUAAUCUAGACAAUAUACAAGCCAAAGUGGCAUGUU	1.17
UGAGGAUGUGUGUAGCUCAGUUGGUAGACUGAUUGCCCUACAUGAACGGGACUGAAUUUGAUCACCAGCCCCACAAACCAUUCUCAAUGGUCAAUGGUUGUAAUCCCAGC	1.28
CCUAGCAUAUGUGAAGCCAUGGGUUCUAUUCUCAGAACUGAAAAAAAAAAAAAUUCCAUCCUCGUAUCUCAUGUGUACACAUAUGAACACACACACUGCACAUGUAACUG	0.853

Study 2 — technique: DHFR PCA, deep sequencing; sample: yeast; with: (+)-ABA 0.11 µM; baseline: wild-type fitted maximum; direction: higher = stronger binding
Target: ABI1, truncated, D143A, DHFR fusion (Arabidopsis thaliana)
Setting: methotrexate growth selection, single substitutions
Starting sequence: PYL1, truncated, DHFR fusion (Arabidopsis thaliana); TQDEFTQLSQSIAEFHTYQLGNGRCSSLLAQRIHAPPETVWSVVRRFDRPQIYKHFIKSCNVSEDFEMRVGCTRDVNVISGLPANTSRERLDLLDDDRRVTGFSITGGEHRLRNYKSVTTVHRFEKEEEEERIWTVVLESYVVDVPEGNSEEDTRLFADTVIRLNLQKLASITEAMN; partner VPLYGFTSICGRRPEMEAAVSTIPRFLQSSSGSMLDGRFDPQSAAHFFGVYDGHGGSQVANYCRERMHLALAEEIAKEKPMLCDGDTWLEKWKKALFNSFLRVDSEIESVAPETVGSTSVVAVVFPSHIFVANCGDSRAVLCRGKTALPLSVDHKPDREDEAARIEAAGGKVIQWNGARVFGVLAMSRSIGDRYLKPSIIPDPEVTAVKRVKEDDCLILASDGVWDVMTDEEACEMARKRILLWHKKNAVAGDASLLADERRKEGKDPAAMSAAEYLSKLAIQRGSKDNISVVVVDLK
Variant	relative binding score
I133H	26%
H34Q	41.2%
Q19A	29.3%
A30G	12.8%
T6D	47.4%
N22Y	23.7%
N61E	51.2%
S27V	1.39%
E125T	44.7%
V44P	-2.41%
N22L	22.4%
H110G	24.9%
E14N	5.82%
S42D	17.3%

Study 3 — target: CCNA1, cyclin fold, Cln2 fusion (human); technique: yeast growth competition, sequencing; sample: yeast; setting: weak parent motif; baseline: not given; direction: higher = stronger binding
Starting sequence: RB1 docking peptide (human); PKPLKKLRFDIEG
Variant	normalised enrichment score
RKPLKKLRFDIEG [P1R]	0.307
PYPLKKLRFDIEG [K2Y]	0.457
PKPLKKLRFAIEG [D10A]	0.491
PKPLQKLRFDIEG [K5Q]	0.416
PKPLKKPRFDIEG [L7P]	0.162
PFPLKKLRFDIEG [K2F]	0.192
PKPLKKLRFDILG [E12L]	0.266
PKPLKKLRFDIEF [G13F]	0.293
PKPLNKLRFDIEG [K5N]	0.219
PKPLKKLRFDTEG [I11T]	-0.175
PWPLKKLRFDIEG [K2W]	-0.0476
PKPLKKLSFDIEG [R8S]	0.307
PKPQKKLRFDIEG [L4Q]	-0.0147
PKPLKKLRFDIEP [G13P]	0.149
PKPLKKLFFDIEG [R8F]	0.378
PTPLKKLRFDIEG [K2T]	-0.121
PKPIKKLRFDIEG [L4I]	0.447
PKPLKMLRFDIEG [K6M]	0.203
PKPLKKLRFDIEW [G13W]	0.232
PKQLKKLRFDIEG [P3Q]	0.17
WKPLKKLRFDIEG [P1W]	0.296

Study 4 — technique: protein binding microarray; molecule type: double-stranded DNA, one strand shown; sample: in vitro; concentration: not given; baseline: not given; direction: higher = stronger binding
Target: Histone acetyltransferase KAT6A, winged helix 2, GST fusion (KAT6A, Homo sapiens, UniProt Q92794, residues 85-181)
Setting: 8-mer, flanks averaged, mean of 2 arrays, mostly near background
Construct (chain): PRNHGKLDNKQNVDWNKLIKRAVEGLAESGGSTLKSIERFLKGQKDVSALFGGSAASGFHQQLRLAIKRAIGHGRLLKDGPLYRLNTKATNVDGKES
Sequence	E-score
AATTACCC	-0.181
AGTCTGAA	-0.0621
AATGTAAC	0.0935
CCATGAGA	-0.00406
CGACACCC	0.0698
CAACGTAA	-0.224
CAAGAGGC	-0.0256
GTTCGGTA	0.0162
CTAATGCC	-0.0747
CACACGTC	-0.18
GTGGGTCA	-0.0248
GAGGTTCA	0.0127
AAGAGGTA	-0.0166
CGCGGATA	0.156
AATAGTGC	0.0565
ACACGAGA	-0.0915
AGATTTGC	-0.0309
ATCAACTA	0.0783
TAAGCTAA	-0.0233
CTGTCAAA	0.0398
GGATAGTA	-0.041
CGTGTGGA	-0.0157
AATCCCCT	-0.0499
AGGGTTAC	-0.0684
ATACTCCG	0.0973

Study 5 — technique: protein-binding microarray; molecule type: double-stranded DNA, one strand shown; sample: in vitro; concentration: not given; direction: higher = stronger binding
Target: Hepatocyte nuclear factor 3-beta, forkhead domain (FOXA2, Homo sapiens, UniProt Q9Y261, residues 142-269)
Setting: k-mer, scored over probes, only values ≥0.25
Construct (chain): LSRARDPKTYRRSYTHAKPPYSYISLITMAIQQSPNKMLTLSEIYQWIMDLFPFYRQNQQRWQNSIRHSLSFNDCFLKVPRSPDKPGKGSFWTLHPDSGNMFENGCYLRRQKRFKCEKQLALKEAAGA
Sequence	E-score
AAATCAAA	0.262
CCAATAAC	0.259
TAAAGTCA	0.262
AGTACTAC	0.283
ATATGTAA	0.296
CAATAATA	0.32
AACACAGT	0.292
ATAACAAT	0.322
TAATATAA	0.354
AACACATA	0.408
CTATCACA	0.26
TAGTTACA	0.295
TAATACCA	0.285
AATAATCT	0.283
ATGTAGTC	0.253
AATTTCCA	0.267
ATTACAAG	0.347
ATATGTCA	0.27
ACATCAAT	0.324
ATACATAA	0.344

Study 6 — target: ATF2, bZIP domain (human); technique: DHFR protein complementation; sample: yeast; baseline: wild-type JUN-FOS pair; direction: higher = stronger binding
Setting: single substitutions, most at no-binding floor
Starting sequence: JUN, bZIP domain (human); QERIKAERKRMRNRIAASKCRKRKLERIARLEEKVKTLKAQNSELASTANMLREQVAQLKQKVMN; partner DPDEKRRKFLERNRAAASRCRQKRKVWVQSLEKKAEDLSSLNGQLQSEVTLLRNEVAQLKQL
Variant	binding fitness [natural log]
V56G	-1.51
K34M	-1.23
K39H	-1.3
A29I	-1.4
V35F	-1.46
L52I	-1.59
E44Y	-1.43
L31W	-1.41
A46M	-1.31
E32Q	-1.41
N42V	-1.48
K39Y	-1.44
A57S	-1.42
N42T	-1.5
V35L	-1.42
T48M	-1.41
Q58P	-1.51
K34W	-1.43
A29C	-1.45
A46W	-1.25
K36L	-1.27
L45Q	-1.49
T48W	-1.52
L52R	-1.5
A49G	-1.45

Some of these lines once more (study 4):
Sequence	E-score
GTTCGGTA	0.0162
AATCCCCT	-0.0499
ACACGAGA	-0.0915
CGACACCC	0.0698
AGTCTGAA	-0.0621
ATACTCCG	0.0973
AATAGTGC	0.0565
CTGTCAAA	0.0398
CTAATGCC	-0.0747
CACACGTC	-0.18
GAGGTTCA	0.0127
AAGAGGTA	-0.0166
CAAGAGGC	-0.0256
AATTACCC	-0.181
